{"data": "Results of several laboratories", "note": "Parts stem from different laboratories: compare values within a part only. Values joined by “and” are separate records of one study, mostly repeats; a detail may differ. Positions count from the first letter of the parent shown.", "chain of UniProt Q13976 (whole entry, looked up)": "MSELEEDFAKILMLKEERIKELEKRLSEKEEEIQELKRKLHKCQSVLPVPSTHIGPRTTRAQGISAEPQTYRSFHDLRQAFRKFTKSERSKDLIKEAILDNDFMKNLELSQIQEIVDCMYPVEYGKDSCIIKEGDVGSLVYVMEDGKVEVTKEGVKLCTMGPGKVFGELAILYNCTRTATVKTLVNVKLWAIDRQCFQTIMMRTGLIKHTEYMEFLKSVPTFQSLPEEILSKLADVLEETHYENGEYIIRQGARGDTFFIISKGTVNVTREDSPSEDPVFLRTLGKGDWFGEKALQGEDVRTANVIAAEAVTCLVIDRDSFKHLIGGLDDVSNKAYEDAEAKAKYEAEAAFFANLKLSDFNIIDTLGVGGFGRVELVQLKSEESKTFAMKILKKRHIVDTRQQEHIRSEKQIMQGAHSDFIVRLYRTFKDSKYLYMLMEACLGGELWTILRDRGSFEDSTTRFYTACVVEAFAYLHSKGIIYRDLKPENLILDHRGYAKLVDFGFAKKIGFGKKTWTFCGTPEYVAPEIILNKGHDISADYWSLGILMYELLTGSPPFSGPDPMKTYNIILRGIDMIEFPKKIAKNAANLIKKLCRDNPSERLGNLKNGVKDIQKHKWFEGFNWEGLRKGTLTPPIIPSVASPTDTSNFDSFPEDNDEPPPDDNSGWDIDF"}
{"data": "Series 1", "target": "CCNB2, cyclin fold, Cln2 fusion (human)", "method": "yeast growth competition, sequencing", "medium": "yeast", "setting": "strong parent motif", "reference": "not given", "reading": "higher = stronger binding", "parent": "viral docking peptide; YKVKRRLVFGADD; partner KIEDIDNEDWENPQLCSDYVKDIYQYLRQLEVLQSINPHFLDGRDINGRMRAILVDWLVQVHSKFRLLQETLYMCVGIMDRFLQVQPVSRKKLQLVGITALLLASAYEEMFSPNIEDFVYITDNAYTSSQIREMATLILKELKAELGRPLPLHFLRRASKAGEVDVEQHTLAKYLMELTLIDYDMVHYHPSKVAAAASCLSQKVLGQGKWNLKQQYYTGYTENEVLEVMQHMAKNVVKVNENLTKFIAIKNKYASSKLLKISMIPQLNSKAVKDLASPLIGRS"}
{"Change": "YKFKRRLVFGADD [V3F]", "normalised enrichment score": 0.516}
{"Change": "YKVLRRLVFGADD [K4L]", "normalised enrichment score": 0.661}
{"Change": "YKVKRRLVFGGDD [A11G]", "normalised enrichment score": 1.84}
{"Change": "YKVKRRLVFIADD [G10I]", "normalised enrichment score": 1.51}
{"Change": "YKWKRRLVFGADD [V3W]", "normalised enrichment score": -0.204}
{"Change": "YKVKRRLVFGSDD [A11S]", "normalised enrichment score": 1.76}
{"Change": "YKVKRRLVFGAVD [D12V]", "normalised enrichment score": 1.02}
{"Change": "YKVKRRLCFGADD [V8C]", "normalised enrichment score": 1.77}
{"data": "Series 2", "target": "HLA class I histocompatibility antigen, A alpha chain, allele A*80:01 (Homo sapiens, UniProt P04439)", "observed": "peptide-MHC binding", "form": "peptide", "tested at": "concentration not given"}
{"Molecule": "IGYRLGMGK", "binding": "inactive"}
{"Molecule": "MSPHRVPNY", "binding": "inactive"}
{"Molecule": "IIRTENRPL", "binding": "inactive"}
{"Molecule": "KEAVNHFHL", "binding": "inactive"}
{"Molecule": "TPREAPYEL", "binding": "inactive"}
{"Molecule": "TTIGEWAFW", "binding": "inactive"}
{"Molecule": "DAVEDFLAF", "binding": "inactive"}
{"Molecule": "LTDSSTLLV", "binding": "inactive"}
{"data": "Mixed results"}
{"Structure (SMILES)": "CC(C)(C)c1cc(C=C(C#N)C#N)cc(Br)c1O", "target or system": "cGMP-dependent protein kinase 1, isoform beta (PRKG1, Homo sapiens, UniProt Q13976)", "assay": "enzyme activity, inhibitor", "conditions": "0.5 µM", "scale": "reference: control", "quantity": "remaining activity", "result": "107%"}
{"Structure (SMILES)": "CCOc1ccc(Nc2c3c(nc4ccccc24)CCC3)cc1", "target or system": "Leishmania donovani", "assay": "parasite killing", "test system": "DD8, promastigotes", "conditions": "0.66 µM, 48 h", "quantity": "inhibition", "result": "24% and 23% and 20%"}
